Experimental data gathered from unrelated publications.
Numbered parts are unrelated; each lists some results of a single study. Substitutions count along the parent as printed.

Study 1 — target: CRIPT, C-terminal peptide; method: DHFR complementation, deep sequencing; medium: yeast; relative to: wild type; direction: higher = weaker binding; measurement: binding free energy change
Setting: single substitutions, model-inferred values
Starting sequence: ERBIN, PDZ domain 1 (human); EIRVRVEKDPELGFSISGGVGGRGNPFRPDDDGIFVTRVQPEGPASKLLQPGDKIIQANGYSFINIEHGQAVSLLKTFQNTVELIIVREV; partner TKNYKQTSV
E11W: -0.565 kcal/mol
G60Q: 0.153 kcal/mol
N80S: 0.0432 kcal/mol
R88W: 0.87 kcal/mol
F78K: 0.255 kcal/mol
L49C: -0.295 kcal/mol
G52M: 0.67 kcal/mol
K54I: 0.785 kcal/mol
P44Y: 0.705 kcal/mol
R38Y: 0.104 kcal/mol
E1Q: -0.0259 kcal/mol
A71W: 1.43 kcal/mol
V90Q: -0.0383 kcal/mol
I16P: 0.402 kcal/mol
L12V: 1.38 kcal/mol

Study 2 — method: RNA Bind-n-Seq; form: RNA; medium: in vitro; tested at: not given; relative to: input RNA pool; direction: higher = stronger binding; measurement: bound/input enrichment
Target: RING finger protein unkempt homolog, zinc fingers 1-6, GST-SBP tag (UNK, Homo sapiens, UniProt Q9C0B0, residues 30-357)
Sequence of UniProt Q9C0B0 (30-357, looked up): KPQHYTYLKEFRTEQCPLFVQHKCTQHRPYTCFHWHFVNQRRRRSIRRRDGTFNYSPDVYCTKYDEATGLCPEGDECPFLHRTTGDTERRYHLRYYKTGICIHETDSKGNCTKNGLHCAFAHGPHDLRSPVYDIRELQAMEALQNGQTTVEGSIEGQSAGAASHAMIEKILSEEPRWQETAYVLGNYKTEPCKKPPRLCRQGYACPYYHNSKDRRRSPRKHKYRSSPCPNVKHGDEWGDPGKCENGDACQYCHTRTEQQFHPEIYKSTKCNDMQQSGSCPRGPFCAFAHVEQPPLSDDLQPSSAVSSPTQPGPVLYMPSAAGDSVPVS
Setting: RNA with constant flanks, human and mouse sites, ends assumed
Shared flanks, not repeated: GGGAGUUCUACAGUCCGACGAUC … CAACAGAGGAUUGAGCAUCA
UUAAAGUUGUUGGCAGAGAUGAGUUCAUUUUGUGGUGACAUGGAAAAACUAGAAACAAAUUUAAGAAAACUGUUUGAUAAGUUAUUGGAGUAUAUGCCUCUCCCUCCAGAAGAAGCAGAA: 1.89 ratio
ACCUGAGAGACACCCUCCUCUAGAAUUUAGUGGCGGGUCUGGGCUGGCAGAGGUAGGGGGCUGCUUUGGGCUUUGCACCUGCACUUUGGUGACAUUGUUCUUCUGUGUUCCCUUUAUUUA: 2.49 ratio
AUUUAAUAUUGCUUCUCCUGCAUGGCGAAACUGCCUAUUCUGCUAUUUAAAACCCUCAUAAAUUUAUUUUCUACUGCCGCUUUUUCAUGUGCAGCCAAAAUGGAAAUGUUUAAAUUAACU: 0.657 ratio
AAUGAAUCACUGAACAACCUCUUUAUUACUGAAGAAGAUUACCAGGCUCUGCGAACAUCAAUAGAUGCUUAUGACAACUUUGACAACAUCUCACUUGCUCAGCGUUUGGAAAAACACGAA: 0.107 ratio
CUUUCUUCCUCACCAGAGUAUGGGGCAGAGAUAAUAAUGGACAUCAAUACAGCUGGUAUUGAUAUGCCCAUGUUUUCUGCUUUGUUACACUACCUUUAUACAGGAGAGUUUGGAAUGGAG: 0.118 ratio
UCCCUCUCCACUCCCAUCUUCAGGCCAGCAGUAUCUGUUGGAAAUGUUGGCCAGCUUGCAAUGGAUCUGAUUAUUUCUACACUGAAUAUGUCUAAGAUUGGUUACUUCUAUACCGAUUGU: 0.311 ratio
CAUAAUCUGAAGGAUCGCUACUAUUCAGGACUAAUCUAUACUUAUUCUGGACUCUUCUGUGUAGUUAUAAACCCUUACAAGAAUCUUCCAAUUUACUCUGAGAAUAUUAUUGAAAUGUAC: 3.24 ratio
AAAUGUACCACCUGUCAUUUCAACACCUCACCACUACCUCAUCAGUAUCUACCGGGAUAAGCUCUUCUUUGUAUCUGUCAUACAGACCGAAGUGCCACCUCUCUUUGUAAUUGAGUUCCU: 0.333 ratio
UGUACCCAGAUUCUAAGAACCUGGAGAAGGAUUAGCAGUUCUUAGUAAGUUUACUGUGUAUAGGAACGGUUUGUAUUUCAUUACAGCUAUUCAUCUUUUCUACAUUAAAAAUAUUUUUCU: 3.12 ratio
CAUCAUUAUGCCUAUAAUGUGCCGCUUUGUGAUUGGGCAUUUGCCUACUUUUCUUUCAUAAUUAGUGAUAUAUGCGAUGUAAAACCACUAGUAAAGGUACAUUUUAAUACUUGUUAUUUU: 4.96 ratio
CUGUGAAAGUAUGGGAAGGUUCCCAUCCCCAUCCUUUAAGGUUCCCAAACCUGGAGUGCAUAGGUACUAAACCAAGCAGUGCAACUUGUAAUUAAGAAGCUGCAGUGUUUACAUGUUUCU: 0.205 ratio

Study 3 — target: CCNE2, cyclin fold, Cln2 fusion (human); method: yeast growth competition, sequencing; medium: yeast; setting: weak parent motif; relative to: not given; direction: higher = stronger binding; measurement: normalised enrichment score
Starting sequence: KIF20B docking peptide (human); KRAKRKLYTSEIS; partner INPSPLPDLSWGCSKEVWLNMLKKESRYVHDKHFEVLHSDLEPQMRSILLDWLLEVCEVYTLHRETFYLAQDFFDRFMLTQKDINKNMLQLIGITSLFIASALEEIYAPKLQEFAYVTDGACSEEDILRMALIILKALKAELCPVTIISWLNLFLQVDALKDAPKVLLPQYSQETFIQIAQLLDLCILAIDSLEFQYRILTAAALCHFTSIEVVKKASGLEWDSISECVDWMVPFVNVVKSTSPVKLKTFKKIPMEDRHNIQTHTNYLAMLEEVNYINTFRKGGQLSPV
KRAKRKLYTSEAS [I12A]: 0.591
KRAKRALYTSEIS [K6A]: 0.301
KRAKRKLYTSEIA [S13A]: 0.713
KRAKRKLATSEIS [Y8A]: -0.202
KAAKRKLYTSEIS [R2A]: 0.531
KRAARKLYTSEIS [K4A]: 0.861

Study 4 — target: CEBPE, bZIP domain (human); method: DHFR protein complementation; medium: yeast; relative to: wild-type JUN-FOS pair; direction: higher = stronger binding; measurement: binding fitness
Setting: single substitutions, most at no-binding floor
Starting sequence: JUN, bZIP domain (human); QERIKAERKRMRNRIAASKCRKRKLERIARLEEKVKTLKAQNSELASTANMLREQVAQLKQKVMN; partner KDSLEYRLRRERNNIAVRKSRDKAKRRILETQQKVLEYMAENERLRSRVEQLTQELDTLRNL
N42W: -1.42 natural log
R53T: -1.02 natural log
L38C: -1.46 natural log
N42V: -1.5 natural log
Q55L: -1.3 natural log
R30W: -1.13 natural log
Q55F: -1.49 natural log
N42Q: -1.33 natural log
E44I: -1.2 natural log
A46T: -1.02 natural log
S43W: -1.34 natural log
K36N: -1.18 natural log
V35F: -1.23 natural log
S43T: -0.951 natural log
A40W: -1.37 natural log
R30I: -1.25 natural log
T37H: -0.996 natural log
L38S: -1.49 natural log
K36E: -1.02 natural log
N42T: -1.46 natural log

Study 5 — method: RNA Bind-n-Seq; form: RNA; medium: in vitro; tested at: 365 nM; relative to: no-protein control; direction: higher = stronger binding; measurement: RBNS enrichment (R)
Target: RNA binding protein fox-1 homolog 2, RRM domain, GST-SBP tag (RBFOX2, Homo sapiens, UniProt O43251-10, residues 100-194)
Setting: natural RNA segment, single round, ends assumed
Shared flanks, not repeated: GGGAGUUCUACAGUCCGACGAUC … UGGAAUUCUCGGGUGCCAA
Target sequence (chain): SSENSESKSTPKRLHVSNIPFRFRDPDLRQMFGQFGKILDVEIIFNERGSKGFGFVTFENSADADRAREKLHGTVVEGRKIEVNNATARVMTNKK
UAUGUUGAAUGCUAUUAAAUGUUUUCCUGUGUCAAAGUAAAAUAUUGUUAAUAAACCUAACAAUGACCCUGAUAGUACAGGUUAAGUGAGAGAACUAUAUGAAUUCUAAC: 0.728
UCAAGACCAGCUUGGCCAACAUGGUGAAACCUCAUCUCUACUAAAAAUACAAAAAUUAGCCAAGUGUGAUGGCACAUACCUGUAAUCCCAGCUACUUGGAAUUGGAAAUC: 0.331
UUUUCAGCUAUUGCUUGUGAAAAAAAGCAAGACUAUGUCACUCUAUAGAAGGCUGUUAAAGUGACUCAGGCAGGAAUUAAUUAUUCUGUACCUAAGGGGUUACUUGUUUA: 0.418
ACUGACUGAGGGGCCAUUGAGAGCCGGUGGGCUCUGCCAUGGAACCCUUCCGUUGAUUAGCAAUGACUGUGCUUGACCCACCCACCUACCCUACUAAUGAAUUUCUGUAG: 0.2
UAUGGCUAUGUUGCUUAAGAUUCUCAGGGAUAGACUUAUUUUUGUUAACUUCAUUCUUUCCUGCUGUUAGGAACAUAGGCCUAAAAUUGUCUCUUGAGUUUGCUCACCCU: 0.891
UCUCGGUCCUCUGGCCCCUUCUCCUUGCGGACCUCAUUUGGAAGGACACAUCUCUCUAUGCAAUUUGUCCCCACCCCACCCCGGCAUGAGAGGCCACGCAGCUCCCGACC: 4.81
UCCUACAAGCUGCUUCGAGGUCCAGGGGCCUCUGCUUCUUAAACACUAUGUCCCAGUCUUCUCAUGUGACCUCAGCCUGAACCCUGUGGAGACCUCCUCUGGCCAGGGGG: 0.323
GGGAUGAAAAUUGCUUUGAUAUAUAGCAGGUAUAUUGAAGCUAUUCCAUAGCACUUAACUGUAGUGAAUACUGUGUCACCAGUUCUGAAAUCAAUUUAAUGUUUAAUGCA: 4
CCUGCUGUUAAAUAAAGAAUUUCCUUGUCUGAUUUCCUUUCAAUAAAAGUUUUUCUUUGUUUCAGGUUUCAGGUUUUCAGCCUAUAUUUCUUUAGAAUUUAGUGAGAAUU: 0.494
UUUAGUAAUGCUAUCAGUCCUCCAAGUGUUAGGGACAAUCUUAGAAUUCUCAUGUAAUGAGAAGCAAGAAAACUAUGUGUUACUAUUCAUUAUAUUUCAUGUUUGACCAU: 0.351
GUAAACAAAUUAAGAGUUAUUCAUUCAAAUUUUUUGCAGUGUUAAUCUGUAAAUGAUGGCUUGAUGUACAGAAAAUGUAUUUUUGCUUAAAAGAUGCCUGGGUACCUUUU: 0.545
UUAAUAGGGUCAUAUUGUGAAUGUCUCACUACAAAAUGACUUGAGUCCAGUGAAAUCUCAUUAGGGUUUAAGAAUAUUUCAGGGAUCCUUAAUGUUUUGAUUUUUGUUUU: 0.439

Study 6 — method: DHFR PCA, deep sequencing; medium: yeast; with: (+)-ABA 0.11 µM; relative to: wild-type fitted maximum; direction: higher = stronger binding; measurement: relative binding score
Target: ABI1, truncated, D143A, DHFR fusion (Arabidopsis thaliana)
Setting: methotrexate growth selection, single substitutions
Starting sequence: PYL1, truncated, DHFR fusion (Arabidopsis thaliana); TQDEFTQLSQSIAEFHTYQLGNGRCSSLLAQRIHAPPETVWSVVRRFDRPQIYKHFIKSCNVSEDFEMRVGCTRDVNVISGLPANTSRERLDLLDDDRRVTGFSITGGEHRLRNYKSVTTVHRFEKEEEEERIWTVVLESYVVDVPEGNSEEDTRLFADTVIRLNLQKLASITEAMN
V136M: 29.1%
S59F: 1.34%
R155L: 6.24%
N61T: 53.4%
H16K: 0.802%
R69P: 1.75%
W134I: 23.3%
T17C: 4.49%
R99E: -5.33%
V100S: -4.55%
E64A: 45.1%
V62P: -5.33%
T39N: 5.57%
H110Y: 13%
T106W: -4.74%
V136H: -0.405%
L94I: 8.83%
N61M: 29.7%

Study 7 — method: universal PBM; form: double-stranded DNA, one strand shown; medium: in vitro; tested at: 600 nM; direction: higher = stronger binding; measurement: E-score
Target: Sal-like protein 4, full length isoform A (SALL4, Homo sapiens, UniProt Q9UJQ4, residues 1-1053)
Sequence of UniProt Q9UJQ4 (whole entry, looked up): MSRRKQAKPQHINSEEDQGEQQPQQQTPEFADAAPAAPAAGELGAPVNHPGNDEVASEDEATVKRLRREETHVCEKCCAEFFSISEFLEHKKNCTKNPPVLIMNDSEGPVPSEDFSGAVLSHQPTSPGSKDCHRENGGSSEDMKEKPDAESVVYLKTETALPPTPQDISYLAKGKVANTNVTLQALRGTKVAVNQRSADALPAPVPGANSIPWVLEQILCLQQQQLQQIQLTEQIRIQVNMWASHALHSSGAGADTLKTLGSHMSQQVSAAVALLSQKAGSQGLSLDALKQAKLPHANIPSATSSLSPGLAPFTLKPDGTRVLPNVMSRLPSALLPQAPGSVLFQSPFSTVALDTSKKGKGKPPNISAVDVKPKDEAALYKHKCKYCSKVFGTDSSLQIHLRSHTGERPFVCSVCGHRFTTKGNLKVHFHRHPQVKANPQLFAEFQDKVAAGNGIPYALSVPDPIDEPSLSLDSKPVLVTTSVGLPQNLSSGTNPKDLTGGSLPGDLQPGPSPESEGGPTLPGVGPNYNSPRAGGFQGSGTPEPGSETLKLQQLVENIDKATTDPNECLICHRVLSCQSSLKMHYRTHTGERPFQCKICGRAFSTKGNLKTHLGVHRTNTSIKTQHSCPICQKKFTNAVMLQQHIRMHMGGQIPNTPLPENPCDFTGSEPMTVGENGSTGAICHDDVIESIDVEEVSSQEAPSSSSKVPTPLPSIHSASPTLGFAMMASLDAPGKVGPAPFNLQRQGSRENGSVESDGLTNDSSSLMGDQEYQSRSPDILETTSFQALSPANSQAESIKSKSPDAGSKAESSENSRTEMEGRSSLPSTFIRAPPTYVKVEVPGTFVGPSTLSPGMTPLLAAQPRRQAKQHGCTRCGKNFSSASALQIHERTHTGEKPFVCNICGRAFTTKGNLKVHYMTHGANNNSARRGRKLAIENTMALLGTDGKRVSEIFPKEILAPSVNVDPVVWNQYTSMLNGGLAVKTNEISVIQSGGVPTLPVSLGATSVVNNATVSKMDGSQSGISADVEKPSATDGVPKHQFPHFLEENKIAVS
Setting: 8-mer, flanks averaged, mean of replicates
GAATGCGA: 0.0695
CGCACACG: -0.178
AGGCTTTA: 0.0574
GACGGGGC: -0.308
AATATTGA: 0.394
ACCAAGAC: 0.00207
AATAATCC: 0.338
CTAACAAG: 0.177
CAACTTAA: 0.149
CCCTAAAC: -0.0882
CACTTACC: 0.0399
AGGTTTAC: -0.0788
ATCGTGGA: 0.0328
CTATGGCA: 0.113
TAATCCGA: 0.162
GATGACGA: 0.0537
GTAGTGTA: 0.00516
ACGTTTAC: 0.111
CAAATGAG: 0.0573
AGGTAGGC: -0.166
CTCTAATC: -0.0163
GAAATAAA: 0.292
AGTCCGAC: -0.19
CTCAACCC: -0.246
CGCGCTAC: -0.084

Some of these lines once more (study 7):
ATCGTGGA: 0.0328
GATGACGA: 0.0537
CTCTAATC: -0.0163
CGCACACG: -0.178
GAAATAAA: 0.292
CAAATGAG: 0.0573
TAATCCGA: 0.162
CTATGGCA: 0.113
AGGTAGGC: -0.166
